Measurements pooled from the literature.
Lines come from different studies, so protocols differ. Values joined by “and” are separate records of one study, mostly repeats; a detail may differ.
Cell line: BT-549

With C#C[C@@]1(O)[C@@H](CO)O[C@@H](n2cc(I)c3c(N)ncnc32)[C@@H]1O the TGI was 3.26 µM and 4.94 µM (SRB; NCI-60 screen).
With CCCN1CCN(c2ccc3[nH]c(-c4ccc5[nH]c(-c6ccc(C(F)(F)F)cc6)nc5c4)nc3c2)CC1 the growth percent was 73.5% (SRB; 10 µM, 48 h).
C#C[C@@]1(O)[C@@H](CO)O[C@@H](n2ccc3c(N)ncnc32)[C@@H]1O gave a TGI of 3.64 µM (SRB; NCI-60 screen).
With CCN(CC)c1ccc(C=NNC(=O)CSc2nc3ccccc3c(=O)n2Cc2ccc(S(N)(=O)=O)cc2)c(O)c1 the TGI was > 100 µM (NCI five-dose screen).
CCCCN1CCN(c2ccc3[nH]c(-c4ccc5[nH]c(-c6ccc(OCC)c(OCC)c6)nc5c4)nc3c2)CC1 has a growth percent of -23% (SRB; 10 µM, 48 h).
With Cc1cc(=O)[nH]n1-c1nc(-c2ccc(Cl)cc2)c2c(NC(=O)c3ccccc3)nnc-2[nH]1 the cell growth was 99.5% (SRB; 10 µM, NCI60 single-dose screen; relative to: untreated).
The GI50 of Cn1cncc1C1=CN(c2ncnc3[nH]cnc23)CCS1 is reported as 9.1 µM.
CN1CCN(c2ccc3[nH]c(-c4ccc5[nH]c(-c6ccc(C(F)(F)F)cc6)nc5c4)nc3c2)CC1 gave a growth percent of 84.6% (SRB; 10 µM, 48 h).
S=C([S][Au-][P+](CCCCCC[P+]([Au-][S]C(=S)n1cccn1)(c1ccccc1)c1ccccc1)(c1ccccc1)c1ccccc1)n1cccn1 gave a log10 TGI of -4.78 (cell growth, NCI-60 screen; breast cancer).
CCn1cc(-c2cc(Cn3ccoc3=N)cc3c2CCN([C@@H](C)c2cc(OC)ccn2)C3=O)c(C(F)(F)F)n1 has an EC50 of 1.23 µM (cell growth, inhibitor; 120 h).
With CCCCN1CCN(c2ccc3nc(-c4ccc5nc(-c6cc(OC)ccc6OC)[nH]c5c4)[nH]c3c2)CC1 the growth percent was 95.9% (SRB; 10 µM, 48 h).
The IC50 of O=C1NCCc2[nH]c(-c3ccncc3)cc21 is reported as 0.705 µM (MTS; NCI60 panel).
For CC(=O)O[C@H]1C(=O)[C@@]2(C)[C@H]([C@H](OC(=O)c3ccccc3)[C@]3(O)C[C@H](OC(=O)[C@H](O)[C@@H](NC(=O)c4ccccc4)c4ccccc4)C(C)=C1C3(C)C)[C@]1(OC(C)=O)CO[C@@H]1C[C@@H]2O, the TGI was 0.79 µM (sulforhodamine B; Breast cancer; NCI60 screen).
The GI50 of O=C(/C=C/C=C/C=C/C1CCCCC1)NC1=C[C@@](O)(/C=C/C=C/C=C/C(=O)NC2=C(O)CCC2=O)[C@@H]2O[C@@H]2C1=O is reported as 5.74 µM (cell growth, CellTiter-Glo; 78 h).

A few entries again:
CN1CCN(c2ccc3[nH]c(-c4ccc5[nH]c(-c6ccc(C(F)(F)F)cc6)nc5c4)nc3c2)CC1 gave a growth percent of 84.6% (SRB; 10 µM, 48 h).
The GI50 of O=C(/C=C/C=C/C=C/C1CCCCC1)NC1=C[C@@](O)(/C=C/C=C/C=C/C(=O)NC2=C(O)CCC2=O)[C@@H]2O[C@@H]2C1=O is reported as 5.74 µM (cell growth, CellTiter-Glo; 78 h).
